Published values collected from several papers.
Compare with care: the assays were run in different laboratories. Values joined by “and” are separate records of one study, mostly repeats; a detail may differ.
Target: Calcium/calmodulin-dependent protein kinase type 1D (CAMK1D, Homo sapiens, UniProt Q8IU85)

| Compound | test | system | conditions | how to read | measurement | value |
| --- | --- | --- | --- | --- | --- | --- |
| CC(C)=CC1OC(C)(C)C2C=C3C(=O)C(Cl)=CC(O)C3C3C(O)C4OC4C(=O)C132 (stereo not shown) | cell-free assay, competition with immobilised ligand |  | 10 µM |  | remaining binding | 92% |
| CNC(=O)C[C@H](Cc1ccc(C#N)cc1)NC(=O)c1cc(-c2ccc(CN[C@H](C)c3ccc(C)cc3)o2)ccc1Cl | enzyme activity, inhibitor |  | 1 µM |  | activity vs control | 94% |
| Nc1ncc2c(n1)-c1c([nH]c3ccc(C4=CCOCC4)cc13)CCC2 | binding, competition with immobilised ligand |  | 1 µM |  | remaining binding | 92% |
| COc1c(Cl)cccc1Nc1c(-c2ccncc2C#C[C@@]2(C)CCCN2C(=O)/C=C/CN(C)C)[nH]c2c1C(=O)NCC2 | cell-free assay, competition with immobilised ligand |  | 3 µM |  | remaining binding | 82% |
| COc1cc(Nc2nc(C)cc(-c3cnn4nc(OC)ccc34)n2)cc(C(F)(F)F)c1 | inhibitor |  | 1 µM | baseline: control | remaining activity | 84% |
| CN1CCN(Cc2ccc(-c3ccc(CO[C@H]4CCC[C@@H]4NC(=O)c4cc(-c5cnn(C)c5)cnc4N)cc3)cc2)CC1 | enzyme activity, inhibitor |  | 0.1 µM |  | inhibition | -3% |
| C=CC(=O)Nc1cccc(-c2cnc3[nH]cc(C(=O)NC(C)(C)C)c3n2)c1 | kinase activity |  | 0.1 µM |  | inhibition | 14% and 11% |
| CS(=O)(=O)Nc1cccc(-c2csc3cnc(Nc4ccc(N5CCN(CCCCCOc6cccc7c6C(=O)N(C6CCC(=O)NC6=O)C7=O)CC5)cc4)nc23)c1 (stereo not shown) | target engagement in cells, inhibitor, chemoproteomics | MOLT-4 | 1 µM |  | inhibition | -17.9% |
| C=CC(=O)N1CCc2ccc(-n3c(=O)ccc4cnc5ccc(-c6cnn(C)c6)cc5c43)cc21 | KINOMEscan |  | 1 µM | baseline: DMSO control | remaining binding | 100% |
| NC(=O)C[C@H]1CCc2sc3ncnc(O[C@H]4CC[C@H](N5CCOCC5)CC4)c3c21 | enzyme activity, inhibitor |  | 10 µM |  | inhibition | 1% |
| CNC1C[S+]2CC[S+]3CC[S+](C1)[Ru-4]321([N]=C=S)[n]2c3ccc(OC)cc3c3c4c(c5cc(F)c[n+]1c5c32)C(=O)NC4=O (stereo not shown) | KinomeScan |  | 0.1 µM | baseline: untreated | remaining binding | 31% |
| Cc1cccc(O[C@H]2CCC[C@@H](C(C)CNCc3ccncc3)C2)c1 (relative stereo) | enzyme activity, inhibitor |  | 10 µM |  | inhibition | -2% |
| CN1CC[C@@H](COc2cnc(C#N)cc2-c2ccn3nc(NC(=O)C4CC4)cc3c2)C1 | enzyme activity, inhibitor |  | 1 µM |  | inhibition | 19% |
| COc1ccc(NC(=O)Nc2ccc3c(c2)C(=O)N(C(C)CO)CC(C)C(CN(C)Cc2ccc4c(c2)OCO4)O3)cc1 (stereo not shown) | kinase activity |  | 0.03 µM | baseline: control | remaining activity | 111% |
| COc1c(OCCCN2CCOCC2)ccc2c1N=C(NC(=O)c1cnc(N)nc1)N1CCN=C21 | kinase activity, inhibitor |  | 1 µM | baseline: untreated control | remaining activity | 103% |
| C=CC(=O)N1CCCC(n2c(=O)c3ncccc3n(Cc3ccc(Oc4ccccc4)cc3)c2=O)C1 (stereo not shown) | thermal proteome profiling |  | 10 µM, destabilized proteins, unit not given | baseline: vehicle | melting temperature shift | -10.2 |

Excerpt of the above:
| Compound | test | system | conditions | how to read | measurement | value |
| --- | --- | --- | --- | --- | --- | --- |
| CN1CCN(Cc2ccc(-c3ccc(CO[C@H]4CCC[C@@H]4NC(=O)c4cc(-c5cnn(C)c5)cnc4N)cc3)cc2)CC1 | enzyme activity, inhibitor |  | 0.1 µM |  | inhibition | -3% |
| C=CC(=O)N1CCCC(n2c(=O)c3ncccc3n(Cc3ccc(Oc4ccccc4)cc3)c2=O)C1 (stereo not shown) | thermal proteome profiling |  | 10 µM, destabilized proteins, unit not given | baseline: vehicle | melting temperature shift | -10.2 |
